# Measurements gathered from unrelated publications.
# Parts stem from different laboratories: compare values within a part only.

# Sample 1 — technique: protein binding microarray; molecule type: double-stranded DNA, one strand shown; medium: in vitro; tested at: not given; relative to: not given; reading: higher = stronger binding
# Target: Histone acetyltransferase KAT6A, winged helix 1, GST fusion (KAT6A, Homo sapiens, UniProt Q92794, residues 1-85)
# Setting: 8-mer, flanks averaged, mean of 2 arrays, mostly near background
# Construct (chain): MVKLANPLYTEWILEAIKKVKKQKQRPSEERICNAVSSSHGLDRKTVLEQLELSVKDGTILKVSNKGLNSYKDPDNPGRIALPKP
Sequence,E-score
ATTTCGCA,-0.0419
ATTGCCTA,-0.192
TAGAGCAA,-0.131
GCGCAGTA,0.3
AATGCAGT,-0.0216
AAATAGAT,-0.204
AATGTCAA,-0.193
CCGGACGG,0.41
ACCATGGC,-0.00558
GCATACCA,-0.0783
GGAATTCA,-0.233
GGGACCAC,0.125
AAACCAAC,-0.07
CCGCTAGC,0.305
ATTGAGAA,-0.0867
TATGCTGA,-0.163
ACGGTTGA,-0.0419
ATCGCGAT,0.139
CAGGTCTA,-0.277
GGGCGACC,0.155
AAATCTCT,-0.0643
ATACCAGG,-0.159
GTCGACCA,0.0549
CTGTTGTA,-0.08
AATTGCCT,-0.172

# Sample 2 — technique: RNA Bind-n-Seq; molecule type: RNA; medium: in vitro; tested at: not given; relative to: input RNA pool; reading: higher = stronger binding
# Target: RING finger protein unkempt homolog, zinc fingers 1-6, GST-SBP tag (UNK, Homo sapiens, UniProt Q9C0B0, residues 30-357)
# UniProt Q9C0B0, sequence (30-357, looked up): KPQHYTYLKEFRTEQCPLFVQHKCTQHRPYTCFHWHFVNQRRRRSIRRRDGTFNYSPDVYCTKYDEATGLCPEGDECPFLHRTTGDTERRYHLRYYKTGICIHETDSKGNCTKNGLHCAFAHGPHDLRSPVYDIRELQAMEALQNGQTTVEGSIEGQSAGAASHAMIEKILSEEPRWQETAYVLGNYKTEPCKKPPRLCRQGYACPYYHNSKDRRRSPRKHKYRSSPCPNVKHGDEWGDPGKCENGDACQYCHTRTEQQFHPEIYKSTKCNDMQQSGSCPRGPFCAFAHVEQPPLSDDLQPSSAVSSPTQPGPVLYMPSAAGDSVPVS
# Setting: RNA with constant flanks, human and mouse sites, ends assumed
Sequence,bound/input enrichment [ratio]
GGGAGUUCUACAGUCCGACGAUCAUUGAACCUGUACAACCUCCUCCAUCUUCUGCACCUUUGGUUGCUGAUCAAAGACCCAUAACAUUUACAUCUUCAAAAAAUGAAGAACUACAAGGAAACGAUCCCAAAAUUCUUCCUUCACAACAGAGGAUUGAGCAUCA,0.213
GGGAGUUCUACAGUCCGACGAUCUGUGGCGAUUCAGAUAAAGGAUUUGUUGUUAUUAAUCAAAAGGGAAUUGACCCCUUUUCCUUAGAUGCUCUUUCAAAAGAAGGCAUAGUUGCUCUGCGCAGAGCUAAAAGGAGAAAUAUGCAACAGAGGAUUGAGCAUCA,0.292
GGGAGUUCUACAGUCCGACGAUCUGUAGACAGGCUUGGGGGAACACCCCUCCCCCCUGCUCCCUUCCCCUGGCCUGGCCCUCUCGUCCUCAGGUGUACACGUGUUUGGCCUGUGUGCCACGGCUCUGGUGACAGAUGUCAUCCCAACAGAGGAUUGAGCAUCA,0.196
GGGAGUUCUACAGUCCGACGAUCCUCUCUUUUUUAAAUGGGCUGUUUUUACUGCAGGGGCUUUUCUUCCCUAGAAACCCAACUCUACGCAGAAAAAGUGAAAAGGAAAAAAAAAACACAAAAAAAACCAGAAAAAAAAGCUAUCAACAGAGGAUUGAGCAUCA,0.551
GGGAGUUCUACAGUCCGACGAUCACCUCCACCUCCAAGUUCUUAAUGAAUGUUAUAACUAUUGAAGAUUAUAAGAGCACAUACUGGCCAAAAUUGGAUGGUGCCAUAGAUCAACUUUUAACUCAGAGUCCUGGUGACUAUAUCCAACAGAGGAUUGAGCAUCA,0.997
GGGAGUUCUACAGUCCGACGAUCGAGUGCUUAAGCUGCCAACAGUUAGAAGAUGCUAUUUAUUUGUGUCUGUAAGUUUGUACAUAGUAAUGCCAGCCUUGUUGCUGAAUUUUUUAUUUGGGGGGAGAUGACUUUGAAUUUUGUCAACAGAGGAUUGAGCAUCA,10.6
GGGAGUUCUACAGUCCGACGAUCUUGUCAUCUGCACCUUUGCACUUUCCUUUCUCUUGUGUUAUUUUUUUUAUUUUUUUUGUCUUUUCUAGACUCUCUUCCCCCCUUUUUGAGUUGUUGGGCAGUUCUUAUUUCUUGCUUGCUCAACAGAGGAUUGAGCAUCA,20.1
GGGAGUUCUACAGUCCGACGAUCGUAUGGUUUUUGCUUACCCUUUCAAGUCACAGGUAAAUGUUUCAUAAGGAAAUCACAGUUUUUAGAUUCCCUGUUAUUGCUAGUGUGGGACCUGUAGCUGUGGGGUCUGACAUAUUUAUUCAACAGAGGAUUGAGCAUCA,0.66
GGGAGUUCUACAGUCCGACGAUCUAUGCAGAGCGUUAUGAGACAUGGGAAGAUGAUCAAAGCCCACCCUACCAUUAUAAUACCCAUUAUUCAACAGCAACAUCUACUUUAUCCUGGCUUGUUCGAAUUGAACCUUUCACAACCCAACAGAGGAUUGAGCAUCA,0.253
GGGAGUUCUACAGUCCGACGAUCGACAUAAAAUCAGUCUUUCACUAACUAACCUCUAUUCCUUGGGAUUGUAGAAAUUUAAUUUUUUAAUGUGUAAAUUACUCCUACCCUGUACAGCUGUUUCCUACCCACUCUUGUAAACUCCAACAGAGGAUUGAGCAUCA,0.935
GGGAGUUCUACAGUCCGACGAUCGAGUAACUCACCUCCAUGGGCUGACCAAAGGCUUUUCUAAUUUUUGUUACUGAUGAGAUGAAACCUAUUUGUAAGGAGAUCUUCCCCAGGAGCAUUUCUGUUGCCUUCUUGACAUCAAUGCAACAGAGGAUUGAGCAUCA,0.188

# Sample 3 — technique: protein-binding microarray; molecule type: double-stranded DNA, one strand shown; medium: in vitro; tested at: 940 nM top; setting: 60-bp whole probe; together with: salmon DNA 0.4 mg/ml; relative to: random background probes; reading: higher = stronger binding; constant ends, left off below: GCCTAGCAC … GTCTTGATTCGCTTGACGCTGCTG
# Target: Interferon regulatory factor 5, full length, phosphomimetic (IRF5, Homo sapiens, UniProt Q13568-2, residues 1-514, S451D/S453D/S456D/S462D)
Sequence,fitted relative affinity
GGCGGTCTCGGACTGGGGACGTGCTAG,0.667 z-score
CCTATTATATATATCATAAGGTGCTAG,0.439 z-score
TCTGTCCTGATAGCCCTGGCGTGCTAG,-0.297 z-score
TTAGTACTGCTTTTCCTTTAGTGCTAG,0.8 z-score
GACGGTTCCCTTATCCTGACGTGCTAG,0.465 z-score
TTAGGAGTGCTACTGCTTTAGTGCTAG,-0.598 z-score
AACGGACTGGGTATCGGGACGTGCTAG,0.619 z-score
ACAGGAGTGTTTCTCAGTTTGTGCTAG,0.273 z-score
TGTCTTTTCACTTTCTTTAAGTGCTAG,3.07 z-score
TTAGGTTTCCTACTGCTCTAGTGCTAG,0.796 z-score
GACGGACTGGGACTGGAGACGTGCTAG,-0.643 z-score
TTAGGTATCGGGACTGGGTAAGTGCTA,4.26 z-score
TTACGTTTCCTACTGCTTTAGTGCTAG,1.53 z-score
TTAGATTTCAGACTGGGTTAGTGCTAG,-0.105 z-score
TTAGGACTGGGACTGGGTTAGTGCTAG,-0.4 z-score
TTAGATATCAAACTGGATTAGTGCTAG,-0.298 z-score
TTAGGTTTTGGGTTTCGGTTAGTGCTA,7.47 z-score
TTAGGTATCATTCTCCTTTAGTGCTAG,3.22 z-score
TTAGAACTGGGGACTGGATGAGTGCTA,-0.221 z-score
GACGGTCTCGGACTGGGGCCGTGCTAG,0.407 z-score
GACGTTCTCAGTCTCGAGACGTGCTAG,1.89 z-score
TTAGATCTCAGATTCGATTAGTGCTAG,0.41 z-score
TCCATTTTCTAAATGCCCTGGTGCTAG,0.268 z-score

# Sample 4 — technique: RNA Bind-n-Seq; molecule type: RNA; medium: in vitro; tested at: 365 nM; relative to: no-protein control; reading: higher = stronger binding
# Target: RNA binding protein fox-1 homolog 2, RRM domain, GST-SBP tag (RBFOX2, Homo sapiens, UniProt O43251-10, residues 100-194)
# Setting: natural RNA segment, single round, ends assumed
# Construct (chain): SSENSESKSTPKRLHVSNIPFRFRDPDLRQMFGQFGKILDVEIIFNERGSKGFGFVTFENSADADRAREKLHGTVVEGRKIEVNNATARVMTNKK
Sequence,RBNS enrichment (R)
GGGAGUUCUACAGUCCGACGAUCCCUAGUCAUGGCAAAGAAGAUGUGACACGAGGGACCAGUCCCAGAGCAGCUACAGAAAGGGUGUGAGGCCCCAAAACCGUGUGCUGAGGGGCGAAUGCGUCGCCACCCCUUGGAAUUCUCGGGUGCCAA,1.05
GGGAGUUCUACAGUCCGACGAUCCUGUGUCUCCAGAAAGGGGACAUCGGGGGGGAGGGGGGCUCAGAAAGGAGAAGGGCUGUGAUCUCCGGUCCCUUCCCCCAUCAUCCUUCCUUAGACUGAUGCUUUGACUGUGGAAUUCUCGGGUGCCAA,1.59
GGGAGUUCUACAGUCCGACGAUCGUGACCUGUGUAACUUAAAAAAUCUGAGGGUUUGAGAGAGGUUGCUCUAGAUUUCCAAUGACGAUACCCUGGCUGAAUAGGCUUUUCUCUUCCUUGGGCCUUUACUUCUUUGGAAUUCUCGGGUGCCAA,0.316
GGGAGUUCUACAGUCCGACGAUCGCUUGCUCAGAGAGGCCAAACCCUGCUCCCAGGCUGAAGCCUGGAGUCUGCCCCCACUUCCCUUUUCUAUAAUCCACCCUUCUGCAGGCCCUGAAAUCUGAAGGGCUUAGUGGAAUUCUCGGGUGCCAA,2.52
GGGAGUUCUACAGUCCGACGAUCUUCUUUCCUGUUCCAUCCAACUUACCCAUCAUGCAGGGACAGCUGAGGUCCACUCGUGACCUAGGCCGCCCCACUCCCAUCCACCGAGAGUCAAGUGAUGACACGACACAUGGAAUUCUCGGGUGCCAA,0.798
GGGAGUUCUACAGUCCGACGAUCCACAGACAGGCCAGAUGCAUUUGUCCUUUGCCUAGCUACUCCCCAGGUAGAGAGUGCUCCUGGUGGCCUGGCAGGUCUGGGCCCUUCUCUCCCUGCCCAGGUUGUCCCUGUGGAAUUCUCGGGUGCCAA,0.381
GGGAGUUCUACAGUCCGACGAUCAUUGUCAGUCUGUGUCACAUCCAGUGAUUGUUUUGGUUUCUGUUCCCUUUCUGACUGCCCAAGGGGCUCAGAACCCCAGCAAUCCCUUCCUUUCACUACCUUCUUUUUUGUGGAAUUCUCGGGUGCCAA,0.575
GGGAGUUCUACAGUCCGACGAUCUAUAGUUAAAAUGGCUUCCCACAGGGUAGAUAAUUAUCCAGGAUCCUUCCUUUUCCUUCUUCCUCCAGGUUUUUCAGGGGUCACUUCACAUUUCUAAAGAAAGAGUGAAUUGGAAUUCUCGGGUGCCAA,0.278
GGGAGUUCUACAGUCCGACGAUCAUGGUGGAGUUGGCAUCUUGUAACUCUCCUUUCUCCUUUCUUCCCCUUUCUCUGCCCGCCUUUCCCAUCCUGCUGUAGACUUCUUGAUUGUCAGUCUGUGUCACAUCCAGUGGAAUUCUCGGGUGCCAA,1.52
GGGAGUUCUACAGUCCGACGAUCUCCCAAACUAGUGCAUGUAUAAAGUGGGAGAGCAGAGGGGGUUAAUAUGUAGAUGGCCAACCGACUUUUUAAUAUUUUGUAAAUAAAUUGGGAUUCUGUGUGUCCUCUGUUGGAAUUCUCGGGUGCCAA,45.1
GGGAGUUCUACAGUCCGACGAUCAUUUUUAUGCUUGACAAGUUGUAUUUUAUAUAUUAGAAAUAAGAUGCCACACAGGGCAAUCCAGAUUUAGAUUAAAGAAAGGAUACACAGACAUUAAUCUGCAACAGGUCUGGAAUUCUCGGGUGCCAA,0.602
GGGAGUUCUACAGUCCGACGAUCAGCAGCUACAGAAAGGGUGUGAGGCCCCAAAACCGUGUGCUGAGGGGCGAAUGCGUCGCCACCCCUGACCCCGCAUCUGGAGGGCGGGGCUUUGCUUGAGAAGACCCCAGUGGAAUUCUCGGGUGCCAA,1.16

# Repeated from above (sample 2):
Sequence,bound/input enrichment [ratio]
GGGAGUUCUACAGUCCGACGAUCGACAUAAAAUCAGUCUUUCACUAACUAACCUCUAUUCCUUGGGAUUGUAGAAAUUUAAUUUUUUAAUGUGUAAAUUACUCCUACCCUGUACAGCUGUUUCCUACCCACUCUUGUAAACUCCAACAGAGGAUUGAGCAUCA,0.935
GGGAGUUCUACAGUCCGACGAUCACCUCCACCUCCAAGUUCUUAAUGAAUGUUAUAACUAUUGAAGAUUAUAAGAGCACAUACUGGCCAAAAUUGGAUGGUGCCAUAGAUCAACUUUUAACUCAGAGUCCUGGUGACUAUAUCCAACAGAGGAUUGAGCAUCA,0.997
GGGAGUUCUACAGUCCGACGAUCUUGUCAUCUGCACCUUUGCACUUUCCUUUCUCUUGUGUUAUUUUUUUUAUUUUUUUUGUCUUUUCUAGACUCUCUUCCCCCCUUUUUGAGUUGUUGGGCAGUUCUUAUUUCUUGCUUGCUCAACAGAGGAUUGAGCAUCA,20.1
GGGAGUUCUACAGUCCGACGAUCGAGUGCUUAAGCUGCCAACAGUUAGAAGAUGCUAUUUAUUUGUGUCUGUAAGUUUGUACAUAGUAAUGCCAGCCUUGUUGCUGAAUUUUUUAUUUGGGGGGAGAUGACUUUGAAUUUUGUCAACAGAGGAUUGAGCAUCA,10.6
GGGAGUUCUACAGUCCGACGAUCGAGUAACUCACCUCCAUGGGCUGACCAAAGGCUUUUCUAAUUUUUGUUACUGAUGAGAUGAAACCUAUUUGUAAGGAGAUCUUCCCCAGGAGCAUUUCUGUUGCCUUCUUGACAUCAAUGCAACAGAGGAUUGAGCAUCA,0.188
